Results collected from several papers.
Each line is one published result; not all experiments were run side by side. Numbers after ± are the reported error.
UniProt P49116, sequence (whole entry, looked up): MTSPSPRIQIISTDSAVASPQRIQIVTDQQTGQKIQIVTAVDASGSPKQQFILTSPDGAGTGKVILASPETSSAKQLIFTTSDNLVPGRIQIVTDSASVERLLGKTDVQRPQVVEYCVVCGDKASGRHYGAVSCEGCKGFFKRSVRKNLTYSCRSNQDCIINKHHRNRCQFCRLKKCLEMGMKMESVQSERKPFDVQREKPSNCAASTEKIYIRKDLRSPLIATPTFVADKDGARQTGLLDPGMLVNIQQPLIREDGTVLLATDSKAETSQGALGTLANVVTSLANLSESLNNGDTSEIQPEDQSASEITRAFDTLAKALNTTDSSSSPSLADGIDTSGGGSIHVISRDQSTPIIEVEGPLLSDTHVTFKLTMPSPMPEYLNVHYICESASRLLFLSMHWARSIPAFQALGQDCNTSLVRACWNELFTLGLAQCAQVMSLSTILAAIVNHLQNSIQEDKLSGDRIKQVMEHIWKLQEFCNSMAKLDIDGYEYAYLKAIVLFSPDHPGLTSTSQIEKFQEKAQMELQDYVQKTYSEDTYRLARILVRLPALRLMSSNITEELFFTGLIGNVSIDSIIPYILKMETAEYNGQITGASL

SMILES = Cc1ccc(Sc2ccccc2N2CCNCC2)c(C)c1; test = measured: abdominal pain; test system = healthy adult women; setting = oral, 5 mg daily, 12 days; endpoint = participants with TEAE; value = 0%
SMILES = O=C(O)CCC(=O)O.[2H]C([2H])([2H])Oc1cc(C)c2[nH]ccc2c1CN1CC[C@@H](C2CC2)C[C@H]1c1ccc(C(=O)O)cc1; test system = healthy Chinese subjects; setting = 200 mg once daily, multiple ascending dose; endpoint = subjects with drug-related TEAE; value = 50%
SMILES = O=C(Nc1nc2cccc(-c3ccc(CN4CCS(=O)(=O)CC4)cc3)n2n1)C1CC1; test = measured: musculoskeletal disorders; test system = human rheumatoid arthritis patients; setting = oral, 75 mg once daily, 4 weeks, regardless of relatedness; endpoint = treatment-emergent adverse events; value = 0%
SMILES = CCOc1c([C@H](C)n2nc(C)c3c(N)ncnc32)cc(Cl)c(F)c1[C@@H]1CNC(=O)C1; test system = patients, monotherapy; setting = oral, 5 mg once daily, cycle 1 day 15; endpoint = Cmax; value = 690 nM
SMILES = COc1cc2c3cc1Oc1c(OC)c(OC)cc4c1[C@@H](Cc1ccc(O)c(c1)Oc1ccc(cc1)C[C@@H]3N(C)CC2)N(C)CC4; test system = mouse plasma, K3EDTA; setting = 0.5 h, 25-26 °C, room temperature; endpoint = remaining compound; value = 105%
SMILES = C[C@@H](O)[C@H]1C(=O)N2C(C(=O)O)=C(SCCN=CN)C[C@H]12; test = starch gel membrane permeability; test system = Gram-negative envelope surrogate; setting = 200 µM, 60 min, pH 7.4; endpoint = amount permeated; value = 3.76 nmol
SMILES = C[C@H](NC(=O)/C(C#N)=C/c1cccc(Br)n1)c1ccccc1; test = LC-MS/MS; test system = patients, plasma; setting = oral, 4 mg/kg, cycle 1 day 1; endpoint = AUC(all); value = 93.5 ng·h/mL
SMILES = O=C(O)[C@H]1O[C@@H](Oc2cc(O)cc(/C=C/c3ccc(O)cc3)c2)[C@H](O)[C@@H](O)[C@@H]1O; test system = human, plasma; endpoint = samples above LOQ; value = 100%
SMILES = Cc1cc(C)c(CNC(=O)c2cc(-c3ccc(CN4CCOCC4)cc3)cc3c2cnn3C2CCCC2)c(=O)[nH]1; target or system = OCI-Ly1; setting = 0.5 µM, 120 h; endpoint = viability; value = 163%
SMILES = NC(=O)N1c2ccccc2C=Cc2ccccc21; test = measured: gingival bleeding; test system = human male; setting = oral, dose not given, CTCAE on-treatment AEs; endpoint = adverse events incidence; value = 0%
SMILES = COc1cc(C(=O)NC2CCN(C)CC2)c(F)cc1Nc1ncc(C(F)(F)F)c(Oc2cccc3c2C(=O)N(C)C3)n1; test system = human patients, plasma; setting = oral, 50 mg single dose, geometric mean; endpoint = dose-normalised AUC(0-inf); value = 106 nmol·h/L per mg
SMILES = O=Cc1cc2c(cc1F)C(=O)N(C1CCC(=O)NC1=O)C2 (centres unmarked); test system = cynomolgus monkey, male; setting = oral, 0.3 mg/kg parent drug, 4 h; endpoint = plasma concentration; value = 0.41 ± 0.26 ng/mL
SMILES = Cc1c2oc3c(C)ccc(C(=O)N[C@@H]4C(=O)N[C@H](C(C)C)C(=O)N5CCC[C@H]5C(=O)N(C)CC(=O)N(C)[C@@H](C(C)C)C(=O)O[C@@H]4C)c3nc-2c(C(=O)N[C@@H]2C(=O)N[C@H](C(C)C)C(=O)N3CCC[C@H]3C(=O)N(C)CC(=O)N(C)[C@@H](C(C)C)C(=O)O[C@@H]2C)c(N)c1=O; test = LC-MS; test system = children with cancer, plasma; setting = dose not given, 1 h; endpoint = median plasma concentration; value = 6.3 µg/L
SMILES = COc1ccc2[nH]c([S+]([O-])Cc3ncc(C)c(OC)c3C)nc2c1 (centres unmarked); test system = healthy Chinese volunteers, plasma; setting = oral, 20 mg, enteric-coated tablets, CYP2C19 normal metabolizers; endpoint = AUC(0-inf); value = 460 ± 337 ng·h/mL
SMILES = CCCN[C@H]1CCc2nc(N)sc2C1; target or system = Nuclear receptor subfamily 2 group C member 2, ligand-binding domain (Homo sapiens, UniProt P49116); test = binding; endpoint = Kd; value = 7.56 nM
SMILES = CNC(=O)c1ccc(-c2cnc3ncc(Cc4ccc5ncccc5c4)n3n2)cc1F; test = measured: Pyrexia, all grades; test system = hepatocellular carcinoma patients; setting = oral, 600 mg twice daily, expansion cohort, any causality; endpoint = patients with adverse event; value = 0%
SMILES = CCc1cc(C(=O)NC)c2nccc(N3CCc4c(cc(Cn5ccnc5)cc4-c4cn(C)nc4C(F)(F)F)C3=O)c2c1; test system = Sprague Dawley rats; setting = oral, 100 mg/kg twice daily, 7 days; endpoint = cholesterol; value = 2.1 ± 0.48 mmol/L
SMILES = OCc1nc2ccc(NCc3ccc(C(F)(F)F)cc3)cc2[nH]1; test system = male Balb/c mice, brain; setting = oral, 10 mg/kg, 6 h; how to read = relative to: tissue over plasma; endpoint = tissue/plasma ratio; value = 5.6 ± 0.33
SMILES = O=C(/C=C/N1C[C@H]2C[C@@H]1CN2c1ccccn1)c1ccccc1O; target or system = OCI-Ly1; setting = 0.1 µM, 120 h; endpoint = viability; value = 9.9%
SMILES = O=S(=O)(O)Oc1ccc(CCO)cc1O; test system = human plasma; setting = mean; endpoint = plasma concentration; value = 31.9 nM
SMILES = CNC(=O)c1cccc(-c2ccc(O[C@H]3O[C@H](CO)[C@@H](O)[C@H](O)[C@@H]3O)c(C)c2)c1; test system = male Sprague-Dawley rat, plasma; setting = intravenous, 3 mg/kg, group mean; endpoint = AUC(0-all); value = 521 ng·h/mL
SMILES = Cc1nc(-c2cnc(NC(C)C)n(C)c2=O)ccc1Oc1ccnc(-c2cnn(C)c2)c1; test system = Beagle dog, male, plasma; setting = oral, 3 mg/kg, crossover study, mean; endpoint = apparent clearance; value = 7.5 mL/min/kg
SMILES = CC(C)c1nc(CN(C)C(=O)N[C@@H](CCN2CCOCC2)C(=O)N[C@H](CC[C@H](Cc2ccccc2)NC(=O)OCc2cncs2)Cc2ccccc2)cs1; test = measured: Photopsia; test system = human; setting = oral, 150 mg; endpoint = drug-related TEAE incidence; value = 0%

For quick reference, copied from above:
SMILES = O=C(/C=C/N1C[C@H]2C[C@@H]1CN2c1ccccn1)c1ccccc1O; target or system = OCI-Ly1; setting = 0.1 µM, 120 h; endpoint = viability; value = 9.9%
SMILES = CCc1cc(C(=O)NC)c2nccc(N3CCc4c(cc(Cn5ccnc5)cc4-c4cn(C)nc4C(F)(F)F)C3=O)c2c1; test system = Sprague Dawley rats; setting = oral, 100 mg/kg twice daily, 7 days; endpoint = cholesterol; value = 2.1 ± 0.48 mmol/L
SMILES = C[C@H](NC(=O)/C(C#N)=C/c1cccc(Br)n1)c1ccccc1; test = LC-MS/MS; test system = patients, plasma; setting = oral, 4 mg/kg, cycle 1 day 1; endpoint = AUC(all); value = 93.5 ng·h/mL
